Published values of several laboratories.
A part holds a random share of what one study measured. Positions count from the first letter of the parent shown.

Sample 1
Target: CCND1, cyclin fold, Cln2 fusion (human)
Technique: yeast growth competition, sequencing
Matrix: yeast
Setting: weak parent motif
Baseline: not given
Reading: higher = stronger binding
Starting sequence: RB1 docking peptide (human); PKPLKKLRFDIEG; partner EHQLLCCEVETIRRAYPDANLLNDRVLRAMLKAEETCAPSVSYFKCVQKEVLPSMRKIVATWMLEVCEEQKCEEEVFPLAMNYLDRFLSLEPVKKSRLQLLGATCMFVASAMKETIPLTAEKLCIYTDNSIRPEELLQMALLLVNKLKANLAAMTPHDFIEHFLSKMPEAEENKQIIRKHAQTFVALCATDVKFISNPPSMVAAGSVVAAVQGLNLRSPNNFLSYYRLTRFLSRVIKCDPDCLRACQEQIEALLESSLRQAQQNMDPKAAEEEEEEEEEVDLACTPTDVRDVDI
For `D10H`, “normalised enrichment score” read 0.369.
For `D10E`, “normalised enrichment score” read -1.09.
`K5A`: “normalised enrichment score” -0.173.
`K6F`: “normalised enrichment score” 0.21.
`E12G`: “normalised enrichment score” 0.601.
`K2P` — result for “normalised enrichment score”: 0.914.
`G13L`: “normalised enrichment score” -0.287.
Under “normalised enrichment score”, `E12C` is recorded as 0.0332.

Sample 2
Target: Sal-like protein 4, full length isoform A (SALL4, Homo sapiens, UniProt Q9UJQ4, residues 1-1053)
UniProt Q9UJQ4, sequence (whole entry, looked up): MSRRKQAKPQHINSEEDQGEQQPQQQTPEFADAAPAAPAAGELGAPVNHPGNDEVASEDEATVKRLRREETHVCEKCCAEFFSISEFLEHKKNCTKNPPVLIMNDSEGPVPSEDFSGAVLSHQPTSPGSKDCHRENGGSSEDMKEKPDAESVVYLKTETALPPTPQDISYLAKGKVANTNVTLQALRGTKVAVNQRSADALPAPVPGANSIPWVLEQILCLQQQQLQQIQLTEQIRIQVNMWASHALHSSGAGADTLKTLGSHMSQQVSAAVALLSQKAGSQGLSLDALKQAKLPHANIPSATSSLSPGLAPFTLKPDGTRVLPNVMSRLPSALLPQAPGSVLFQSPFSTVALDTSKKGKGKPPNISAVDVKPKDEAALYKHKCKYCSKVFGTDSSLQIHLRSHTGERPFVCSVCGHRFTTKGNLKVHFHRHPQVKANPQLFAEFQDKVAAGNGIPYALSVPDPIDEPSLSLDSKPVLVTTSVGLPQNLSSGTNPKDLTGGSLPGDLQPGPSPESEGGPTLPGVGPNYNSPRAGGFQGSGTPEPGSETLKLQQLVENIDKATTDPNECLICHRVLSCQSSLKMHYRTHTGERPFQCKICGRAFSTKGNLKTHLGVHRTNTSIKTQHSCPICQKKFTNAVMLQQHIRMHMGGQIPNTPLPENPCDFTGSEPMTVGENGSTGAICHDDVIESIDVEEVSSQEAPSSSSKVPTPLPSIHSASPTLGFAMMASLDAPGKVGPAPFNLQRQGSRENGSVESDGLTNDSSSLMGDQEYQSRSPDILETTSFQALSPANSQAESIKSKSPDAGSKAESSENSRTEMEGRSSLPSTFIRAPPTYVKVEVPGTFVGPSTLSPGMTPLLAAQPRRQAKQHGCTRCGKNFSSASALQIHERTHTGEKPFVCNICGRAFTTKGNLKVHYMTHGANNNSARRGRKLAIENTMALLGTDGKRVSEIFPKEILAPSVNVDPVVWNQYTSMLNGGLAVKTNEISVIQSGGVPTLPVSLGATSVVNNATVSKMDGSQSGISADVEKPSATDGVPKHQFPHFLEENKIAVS
Technique: universal PBM
Molecule type: double-stranded DNA, one strand shown
Matrix: in vitro
Tested at: 600 nM
Setting: 8-mer, flanks averaged, mean of replicates
Reading: higher = stronger binding
The E-score of `CAGCCTAG` is reported as -0.125.
`GAACACTA` gave an E-score of 0.0723.
`ACTTAGTC` has an E-score of -0.0278.
The E-score of `ACCATTTG` is reported as 0.111.
`CTCTGTAA` has an E-score of 0.084.
For `GAAAAGTC`, the E-score was -0.00861.
The E-score of `ACGTTGGG` is reported as -0.21.

Sample 3
Target: Interferon regulatory factor 7, full length, phosphomimetic (IRF7, Homo sapiens, UniProt Q92985, residues 1-503, S471D/S472D/S475D/S476D/S477D/S483D/S484D/S487D)
Technique: protein-binding microarray
Molecule type: double-stranded DNA, one strand shown
Matrix: in vitro
Tested at: 2200 nM top
Setting: 60-bp whole probe
Together with: salmon DNA 0.4 mg/ml
Baseline: random background probes
Reading: higher = stronger binding
All sequences stand within: GCCTAGCAC … GTGCTAGGTCTTGATTCGCTTGACGCTGCTG
Residues (chain): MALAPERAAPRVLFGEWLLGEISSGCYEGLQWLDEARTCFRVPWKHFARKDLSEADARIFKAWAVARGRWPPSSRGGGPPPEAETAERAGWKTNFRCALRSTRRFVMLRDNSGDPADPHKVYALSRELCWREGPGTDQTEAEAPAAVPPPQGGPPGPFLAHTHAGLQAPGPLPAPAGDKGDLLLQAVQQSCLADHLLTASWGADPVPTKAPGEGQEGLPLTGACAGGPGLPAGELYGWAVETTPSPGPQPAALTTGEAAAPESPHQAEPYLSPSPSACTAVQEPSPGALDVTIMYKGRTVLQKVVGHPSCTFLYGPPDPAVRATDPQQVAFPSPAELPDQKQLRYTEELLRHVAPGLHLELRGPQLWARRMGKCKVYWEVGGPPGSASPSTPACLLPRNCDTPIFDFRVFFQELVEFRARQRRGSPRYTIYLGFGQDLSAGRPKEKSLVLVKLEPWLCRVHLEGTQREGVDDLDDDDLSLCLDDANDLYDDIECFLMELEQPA
For `TTAGGTTTCGGTATCGGTCA`, “fitted relative affinity” read 7.61 z-score.
`TTAGATTTCAGTTTCCATTA` — result for “fitted relative affinity”: 4.4 z-score.
`GACGATCTCGGTATCGAGAC` — result for “fitted relative affinity”: -0.102 z-score.
`GACTGTTTCCTTTTCCTGAC` — result for “fitted relative affinity”: 4.78 z-score.
`TCAAGAAAGAAAACGGGGAG`: “fitted relative affinity” -1.03 z-score.
`TTAAATTTCAGTATCGATTA`: “fitted relative affinity” 0.936 z-score.
For `TCACTTCTCAATTAAAAACT`, “fitted relative affinity” read 1.78 z-score.
`CACAGTCTGAGATCCAGAAG`: “fitted relative affinity” 0.303 z-score.
Under “fitted relative affinity”, `TTAGGTATCCCTATCCTTTA` is recorded as 1.03 z-score.
For `GACGGACTGCTTTTCCTGAT`, “fitted relative affinity” read 0.538 z-score.

Mixed results
The fold induction of `PhoQ, residues 284 288 289 292 302 303 DDMDFR` is reported as 0.918 (PhoP, residues 12 14 15 18 19 NHTVL (Escherichia coli, UniProt P23836); Sort-seq, refers to: YFP reporter; E. coli; PhoQ-PhoP variant library, together with: 10 µM Mg2+; baseline: high Mg2+ state, higher = stronger signaling).

Repeated from above (sample 3):
`TCAAGAAAGAAAACGGGGAG`: “fitted relative affinity” -1.03 z-score.
`TTAAATTTCAGTATCGATTA`: “fitted relative affinity” 0.936 z-score.
For `TCACTTCTCAATTAAAAACT`, “fitted relative affinity” read 1.78 z-score.
